Measurements collected from several papers.
Compare with care: the assays were run in different laboratories. Several values in a cell are separate wells, animals, samples, runs or records. ± marks the error that the study gave.
Spike glycoprotein: Spike glycoprotein (Severe acute respiratory syndrome coronavirus 2, UniProt P0DTC2)
rep main protease: Replicase polyprotein 1ab, main protease (rep, Severe acute respiratory syndrome coronavirus 2, UniProt P0DTD1)

SMILES = CC(C)=CCC/C(C)=C/CC/C(C)=C/CC/C(C)=C/CC1=C(C)C(=O)c2ccccc2C1=O; target or system = Spike glycoprotein; test = binding, BLI; quantity = koff; result = 0.000852 s⁻¹
SMILES = Cn1cnc(Cn2c(=O)[nH]/c(=N\c3cc4cn(C)nc4cc3Cl)n(Cc3cc(F)c(F)cc3F)c2=O)n1; test system = human, mild renal impairment; setting = oral, 375 mg, vessel puncture site haemorrhage TEAE, Moderate severity; quantity = patients with adverse event; result = 0%
SMILES = CC(C)C[C@H](CC(=O)NO)C(=O)N[C@@H](Cc1ccc2ccccc2c1)C(=O)N[C@@H](C)C(=O)NCCN; target or system = rep main protease; test = viral replication, Gluc reporter; test system = SARS-CoV-2; setting = 20 µM; quantity = inhibition; result = 1.65%
SMILES = O=C(N[C@@H]1CC[C@H]2C[C@@H]1CN2C(=O)c1ccc(-c2ccccc2)[nH]1)c1cc(O)cc(=O)[nH]1; target or system = rep main protease; test = enzyme activity, inhibitor; setting = 5 µM, mean of runs; quantity = inhibition; result = 40.6%
SMILES = Cc1nc(N)c2cnn(C3CCN(C(=O)c4ccc(S(=O)(=O)F)cc4)CC3)c2n1; target or system = Calmodulin-sensitive adenylate cyclase (cya, Bacillus anthracis, UniProt P40136); quantity = kinact; result = 0.0012 s⁻¹
SMILES = CNC(=O)[C@@H](NC(=O)[C@H](CC(C)C)[C@H](O)C(=O)NO)C(C)(C)C; target or system = snake venom metalloproteinase; test = proteolytic activity, inhibitor; test system = Daboia russelii, venom GA; setting = added: azocasein; quantity = IC50; result = 2440 nM and 2160 nM and 2390 nM
SMILES = O=C(N[C@@H](CNC(=O)[C@H]1CCCc2[nH]cnc21)c1ccc2ccccc2c1)c1cccnn1; target or system = rep main protease; test = enzyme activity, inhibitor; setting = 5 µM, mean of runs; quantity = inhibition; result = 14.4%
SMILES = CCN(CC)CCNC(=O)c1cc(-c2ccc(Br)s2)nc2ccccc12; target or system = SARS-CoV-2; test = cytopathic effect, cell-based CPE; test system = USA_WA1/2020; setting = round 1, 5-point dilution; quantity = AC50; result = 3550 nM
SMILES = CC[C@H](C)[C@H](NC(=O)[C@H](CC(N)=O)NC(=O)[C@H](CCC(=O)O)NC(=O)[C@H](C)NC(=O)[C@H](Cc1c[nH]cn1)NC(=O)[C@@H](NC(=O)[C@@H]1CCCN1C(=O)[C@H](CO)NC(=O)[C@@H]1CCCN1C(=O)[C@@H](NC(=O)[C@H](Cc1ccc(O)cc1)NC(=O)[C@@H](NC(=O)[C@H](CCCNC(=N)N)NC(=O)[C@H](CO)NC(=O)[C@@H](NC(=O)[C@H](Cc1c[nH]cn1)NC(C)=O)[C@@H](C)O)[C@@H](C)CC)[C@@H](C)CC)[C@@H](C)CC)C(N)=O; target or system = Polyprotein P1234, nsP2 protease domain (Chikungunya virus, UniProt Q8JUX6); test = protease activity, inhibitor, FRET; setting = 20 min, pH 7.5, 20 °C; quantity = IC50; result = ≤ 900000 nM
SMILES = C[C@@H]1Cc2c(Cl)cc(C(=O)N[C@@H](Cc3ccccc3)C(=O)O)c(O)c2C(=O)O1; target or system = porcine pancreatic lipase; test = substrate, HPLC fluorescence; setting = pH 7.5, 37 °C, Km above tested range; quantity = Km; result = 330 µM
SMILES = O=C(NC[C@@H]1CC2(CCC2)CN1C(=O)c1ccc(F)c(O)c1)c1cncc2ccccc12; target or system = rep main protease; test = enzyme activity, inhibitor; setting = 5 µM, mean of runs; quantity = inhibition; result = 26.9%
SMILES = NCc1cccnc1; target or system = rep main protease; test = reporter gene (Gaussia luciferase), inhibitor; setting = 20 µM; quantity = inhibition; result = -0.868%
SMILES = COc1ccc(-c2cn3c(n2)sc2cc(C(=O)NCCCN4CCCCCC4)ccc23)cc1; target or system = SARS-CoV-2; test = cytopathic effect, cell-based CPE; test system = USA_WA1/2020; setting = round 2, 5-point dilution; quantity = AC50; result = 14100 nM
SMILES = CC[C@H](C)[C@H](NC(=O)[C@H](CC(C)C)NC(=O)[C@H](Cc1c[nH]c2ccccc12)NC(=O)[C@H](CCC(N)=O)NC(=O)[C@@H](NC(=O)[C@H](Cc1ccccc1)NC(=O)[C@H](C)NC(=O)[C@H](CCCCNC(=O)COCCOCCNC(=O)COCCOCCNC(=O)CC[C@H](NC(=O)CCCCCCCCCCCCCCCCCCC(=O)O)C(=O)O)NC(=O)[C@H](CCC(N)=O)NC(=O)[C@H](C)NC(=O)[C@@H](NC(=O)[C@H](CCCCN)NC(=O)[C@H](CC(=O)O)NC(=O)[C@H](CC(C)C)NC(=O)C(C)(C)NC(=O)[C@@H](NC(=O)[C@H](CO)NC(=O)[C@H](Cc1ccc(O)cc1)NC(=O)[C@H](CC(=O)O)NC(=O)[C@H](CO)NC(=O)[C@@H](NC(=O)[C@H](Cc1ccccc1)NC(=O)[C@@H](NC(=O)CNC(=O)[C@H](CCC(=O)O)NC(=O)C(C)(C)NC(=O)[C@@H](N)Cc1ccc(O)cc1)[C@@H](C)O)[C@@H](C)O)[C@@H](C)CC)[C@@H](C)CC)C(C)C)C(=O)N[C@@H](C)C(=O)NCC(=O)NCC(=O)N1CCC[C@H]1C(=O)N[C@@H](CO)C(=O)N[C@@H](CO)C(=O)NCC(=O)N[C@@H](C)C(=O)N1CCC[C@H]1C(=O)N1CCC[C@H]1C(=O)N1CCC[C@H]1C(=O)N[C@@H](CO)C(N)=O; test system = healthy subjects; setting = all MAD doses; quantity = subjects with acute pancreatitis; result = 0%
SMILES = COc1c(/C=C/C(=O)c2ccc(O)cc2)ccc(O)c1O; target or system = Spike glycoprotein; test = binding, biolayer interferometry; quantity = kon; result = 113 M⁻¹ s⁻¹
SMILES = CC1=CC(=O)[C@@H](O)[C@]2(C)[C@H]3[C@@H](O)[C@H](O)[C@@]4(C)OC[C@@]35[C@@H](C[C@@H]12)OC(=O)[C@H](O)[C@]54O; target or system = rep main protease; test = reporter gene (mKate2), inhibitor; setting = 20 µM; quantity = inhibition; result = -1.02%
SMILES = NC(=O)CI; target or system = Replicase polyprotein 1ab, nsp14 N7-methyltransferase (rep, Severe acute respiratory syndrome coronavirus 2, UniProt P0DTD1); test = N7-methyltransferase activity, inhibitor, Py-FLINT; quantity = Hill slope; result = 2.14 ± 0.036
SMILES = CC(C)ON(CC(=O)NO)S(=O)(=O)c1ccc(-c2ccccc2)cc1; target or system = rep main protease; test = viral replication, mKate2 reporter; test system = SARS-CoV-2; setting = 20 µM; quantity = inhibition; result = -0.585%
SMILES = Cc1cc(C(=O)N2[C@@H]3CCC[C@H]2CC(NC(=O)c2cc[nH]c(=O)c2)C3)cc(=O)[nH]1 (some centres unmarked); target or system = rep main protease; test = enzyme activity, inhibitor; setting = 5 µM, run 2; quantity = inhibition; result = 13.5%
SMILES = Nc1ncnc2c([C@@H]3N[C@H](CO)[C@@H](O)[C@H]3O)c[nH]c12; target or system = Marburg virus; test = viral RNA in cell lysate; test system = HeLa, Musoke; setting = 0.8 µM, 1 h; quantity = inhibition; result = 22.2%

Excerpt of the above:
SMILES = NC(=O)CI; target or system = Replicase polyprotein 1ab, nsp14 N7-methyltransferase (rep, Severe acute respiratory syndrome coronavirus 2, UniProt P0DTD1); test = N7-methyltransferase activity, inhibitor, Py-FLINT; quantity = Hill slope; result = 2.14 ± 0.036
SMILES = CC(C)C[C@H](CC(=O)NO)C(=O)N[C@@H](Cc1ccc2ccccc2c1)C(=O)N[C@@H](C)C(=O)NCCN; target or system = rep main protease; test = viral replication, Gluc reporter; test system = SARS-CoV-2; setting = 20 µM; quantity = inhibition; result = 1.65%
SMILES = Cc1cc(C(=O)N2[C@@H]3CCC[C@H]2CC(NC(=O)c2cc[nH]c(=O)c2)C3)cc(=O)[nH]1 (some centres unmarked); target or system = rep main protease; test = enzyme activity, inhibitor; setting = 5 µM, run 2; quantity = inhibition; result = 13.5%
